Measurements pooled from the literature.
Each line is one published result; not all experiments were run side by side. Values joined by “and” are separate records of one study, mostly repeats; a detail may differ. Numbers after ± are the reported error.

Compound = CC(C)C[C@H](NC(=O)CNC(=O)[C@H](CCC(N)=O)NC(=O)[C@H](CC(C)C)NC(=O)[C@H](CC(C)C)NC(=O)[C@H](CCCNC(=N)N)NC(=O)[C@H](CCC(N)=O)NC(=O)[C@H](CC(C)C)NC(=O)[C@H](CCCNC(=N)N)NC(=O)[C@H](C)NC(=O)CNC(=O)[C@H](CCC(=O)O)NC(=O)[C@H](CCCNC(=N)N)NC(=O)[C@H](CC(C)C)NC(=O)[C@H](CCCNC(=N)N)NC(=O)[C@H](CO)NC(=O)[C@H](CC(C)C)NC(=O)[C@H](CCC(=O)O)NC(=O)[C@H](CO)NC(=O)[C@@H](NC(=O)[C@H](Cc1ccccc1)NC(=O)[C@@H](NC(=O)CNC(=O)[C@H](CC(=O)O)NC(=O)C(C)(C)NC(=O)[C@@H](N)Cc1c[nH]cn1)[C@@H](C)O)[C@@H](C)O)C(=O)N[C@@H](CC(C)C)C(=O)N[C@@H](CCC(N)=O)C(=O)NCC(=O)N[C@@H](CC(C)C)C(=O)N[C@H](C(=O)NCC(=O)N[C@@H](CCCCNC(=O)COCCOCCNC(=O)COCCOCCNC(=O)CC[C@H](NC(=O)CCCCCCCCCCCCCCCCC(=O)O)C(=O)O)C(N)=O)C(C)C; test system = DIO C57BL/6J mice; conditions = sc, 300 nmol/kg twice daily, 8 days; measurement = Ki67-positive pancreatic cells; value = no effect
Compound = CC(C)[C@@H]1NC(=O)CNC(=O)[C@H](CC(N)=O)NC(=O)[C@H](CCCNC(=N)N)NC(=O)[C@H](Cc2ccc(O)cc2)NC(=O)[C@H](C(C)C)NC(=O)[C@@H](NC(=O)[C@@H](NC(=O)[C@H](CC(N)=O)NC(=O)[C@H](Cc2c[nH]c3ccccc23)NC(=O)[C@H](C)NC(=O)[C@H](Cc2ccccc2)NC(=O)CNC(=O)[C@H](CCCCN)NC(=O)[C@H](Cc2ccccc2)NC(=O)[C@H](Cc2ccccc2)NC(=O)[C@H](CCCCN)NC(=O)OCC2c3ccccc3-c3ccccc32)C(C)C)CSSC[C@@H](C(=O)N[C@@H](Cc2c[nH]cn2)C(=O)N[C@@H](CCCNC(=N)N)C(=O)N[C@@H](CCCNC(=N)N)C(=O)N[C@@H](C)C(=O)N[C@@H](CC(N)=O)C(N)=O)NC(=O)[C@H](C(C)C)NC(=O)[C@H](CCCNC(=N)N)NC1=O; test system = ICR mice, blood; conditions = intraperitoneal, 5 mg/kg, day 5; measurement = basophils; value = 1.58 ± 0.25%
Compound = CN[C@H](CC(C)C)C(=O)N[C@H]1C(=O)N[C@@H](CC(N)=O)C(=O)N[C@H]2C(=O)N[C@H]3C(=O)N[C@H](C(=O)N[C@H](C(=O)O)c4cc(O)cc(O)c4-c4cc3ccc4O)[C@H](O)c3ccc(c(Cl)c3)Oc3cc2cc(c3O[C@@H]2O[C@H](CO)[C@@H](O)[C@H](O)[C@H]2O[C@H]2C[C@](C)(NCc3ccc(-c4ccc(Cl)cc4)cc3)[C@H](O)[C@H](C)O2)Oc2ccc(cc2Cl)[C@H]1O; test system = mouse, plasma; conditions = intravenous, 75 mg/kg; measurement = clearance; value = 2.17 mL/min/kg
Compound = CC(C)C[C@H](NC(=O)[C@H](Cc1ccc(O)cc1)NC(=O)[C@H](C)NC(=O)[C@H](CC(N)=O)NC(=O)[C@H](CC(C)C)NC(=O)[C@H](C)NC(=O)[C@@H](NC(=O)[C@H](CCCCN)NC(=O)CNC(=O)[C@@H](NC(=O)[C@H](CCCCN)NC(=O)[C@H](CCCCN)NC(=O)CNC(=O)[C@@H](NC(=O)[C@H](Cc1c[nH]cn1)NC(=O)[C@@H](NC(=O)[C@H](C)NC(=O)[C@H](CCCCN)NC(=O)[C@H](CCCCN)NC(=O)[C@H](Cc1ccccc1)NC(=O)[C@H](Cc1c[nH]c2ccccc12)NC(=O)[C@H](CCCCN)NC(=O)[C@H](CCCCN)NC(=O)[C@H](CC(C)C)NC(=O)CN)C(C)C)C(C)C)C(C)C)C(C)C)C(N)=O; test system = zebrafish embryos 28 hpf, E3 medium; conditions = 24 h; measurement = chronic toxic concentration; value = 5 µM
Compound = CC(C)=CCC/C(C)=C/CCn1cc(CC(C)(P(=O)(O)O)P(=O)(O)O)nn1; test system = mouse CD-1; conditions = intravenous, 0.3 mg/kg, 24 h; how to read = baseline: dose; measurement = biliary excretion; value = 0.053%
Compound = CSCC[C@H](N)C(=O)N[C@@H](C)C(=O)N[C@@H](CCCNC(=N)N)C(=O)N[C@@H](CCCNC(=N)N)C(=O)N[C@@H](CC(=O)O)C(=O)N[C@@H](CCCCN)C(=O)N[C@H](C(=O)N[C@@H](CC(=O)O)C(=O)N[C@@H](Cc1ccccc1)C(=O)N[C@@H](C)C(=O)N[C@@H](CCCNC(=N)N)C(=O)N[C@@H](CCCNC(=N)N)C(=O)N[C@@H](CCCNC(=N)N)C(=O)N[C@@H](CCCNC(=N)N)C(=O)NCCCCCC(=O)NCCCCC(NC(=O)CCCCCNC(=O)[C@H](CCCNC(=N)N)NC(=O)[C@H](CCCNC(=N)N)NC(=O)[C@H](CCCNC(=N)N)NC(=O)[C@H](CCCNC(=N)N)NC(=O)[C@H](C)NC(=O)[C@H](Cc1ccccc1)NC(=O)[C@H](CC(=O)O)NC(=O)[C@@H](NC(=O)[C@H](CCCCN)NC(=O)[C@H](CC(=O)O)NC(=O)[C@H](CCCNC(=N)N)NC(=O)[C@H](CCCNC(=N)N)NC(=O)[C@H](C)NC(=O)[C@@H](N)CCSC)[C@@H](C)O)C(=O)NCCCCC(NC(=O)C(CCCCNC(=O)CCCCCNC(=O)[C@H](CCCNC(=N)N)NC(=O)[C@H](CCCNC(=N)N)NC(=O)[C@H](CCCNC(=N)N)NC(=O)[C@H](CCCNC(=N)N)NC(=O)[C@H](C)NC(=O)[C@H](Cc1ccccc1)NC(=O)[C@H](CC(=O)O)NC(=O)[C@@H](NC(=O)[C@H](CCCCN)NC(=O)[C@H](CC(=O)O)NC(=O)[C@H](CCCNC(=N)N)NC(=O)[C@H](CCCNC(=N)N)NC(=O)[C@H](C)NC(=O)[C@@H](N)CCSC)[C@@H](C)O)NC(=O)CCCCCNC(=O)[C@H](CCCNC(=N)N)NC(=O)[C@H](CCCNC(=N)N)NC(=O)[C@H](CCCNC(=N)N)NC(=O)[C@H](CCCNC(=N)N)NC(=O)[C@H](C)NC(=O)[C@H](Cc1ccccc1)NC(=O)[C@H](CC(=O)O)NC(=O)[C@@H](NC(=O)[C@H](CCCCN)NC(=O)[C@H](CC(=O)O)NC(=O)[C@H](CCCNC(=N)N)NC(=O)[C@H](CCCNC(=N)N)NC(=O)[C@H](C)NC(=O)[C@@H](N)CCSC)[C@@H](C)O)C(N)=O)[C@@H](C)O (stereo partly drawn); test system = C57BL/6 mouse female, colon; conditions = dose not given, 3 h; how to read = baseline: total; measurement = tissue distribution; value = 1.4% and 2.61% and 1.37%
Compound = CC[C@H](C)[C@H](NC(=O)[C@H](Cc1ccc(O)cc1)NC(=O)[C@@H](NC(=O)[C@H](CCCNC(=N)N)NC(=O)[C@@H](N)CC(=O)O)C(C)C)C(=O)N[C@@H](Cc1c[nH]cn1)C(=O)N1CCC[C@H]1C(=O)O; test = noncompartmental; test system = Beagle dogs, both sexes, plasma; conditions = subcutaneous, 10 mg/kg/day, day 0; measurement = AUC; value = 914 ± 204 ng·h/mL
Compound = CSCC[C@H](NC(=O)[C@H](CC(C)C)NC(=O)[C@H](CCC(N)=O)NC(=O)[C@H](C)NC(=O)[C@H](Cc1c[nH]c2ccccc12)NC(=O)[C@H](Cc1ccc(O)cc1)NC(=O)[C@H](CCC(=O)O)NC(=O)[C@H](CC(C)C)NC(=O)[C@H](Cc1ccccc1)NC(=O)[C@@H](NC(=O)[C@H](CC(C)C)NC(=O)[C@H](CCCCN)NC(=O)CCCCCNC(=O)[C@H](CCCCN)NC(=O)[C@H](CCC(N)=O)NC(=O)[C@H](CCSC)NC(=O)[C@H](CC(C)C)NC(=O)[C@]1(C)CCCC=CCCC[C@](C)(NC(=O)[C@H](CC(C)C)NC(=O)[C@H](Cc2ccccc2)NC(=O)[C@@H](NC(=O)[C@H](CC(C)C)NC(=O)[C@H](CCCCN)NC(C)=O)[C@@H](C)O)C(=O)N[C@@H](Cc2ccc(O)cc2)C(=O)N[C@@H](Cc2c[nH]c3ccccc23)C(=O)N[C@@H](C)C(=O)N1)[C@@H](C)O)C(=O)N[C@@H](CCC(N)=O)C(=O)N[C@@H](CCCCN)C(N)=O; test = circular dichroism; test system = phosphate buffer; conditions = pH 7.2, room temperature; measurement = helical content; value = 96.7%
Compound = CCn1ccc(-c2cc(-c3cnn(C)c3)cc([C@@H](C)NC(=O)c3cc(OCCN(C)C)ccc3C)c2)n1; test system = C57BL/6J mice, male, plasma; conditions = iv, 10 mg/kg; measurement = AUC(0-inf); value = 6250 ng·h/mL
Compound = O=C1NC2(CC2)COc2ncc(F)cc2[C@H]2COCCN2c2ccn3ncc1c3n2; test system = Sprague-Dawley rat, male, plasma; conditions = oral, 5 mg/kg/day, end of recovery, 4-week repeated-dose toxicity; measurement = prothrombin time; value = 9.1 ± 0.3 s
Compound = COc1ccc(CNc2ccc3c(c2)S(=O)(=O)C=C3)cc1; test system = male C57BL/6 mice, blood; conditions = intraperitoneal, 5 mg/kg, day 8, group average; measurement = red cell distribution width SD; value = 29.9 fL
Compound = C=Cc1c(C)c2cc3nc(c(CC(=O)[O-])c4[n-]c(cc5nc(cc1[n-]2)C(C)=C5CC)c(C)c4C(=O)[O-])C(CCC(=O)[O-])C3C.[Cu+2].[Na+].[Na+].[Na+] (stereo not drawn); test system = Wistar rat, male; conditions = oral, 250 mg/kg daily, 28 days; measurement = serum AST; value = 126 ± 21.4 U/L

For quick reference, copied from above:
Compound = CC(C)[C@@H]1NC(=O)CNC(=O)[C@H](CC(N)=O)NC(=O)[C@H](CCCNC(=N)N)NC(=O)[C@H](Cc2ccc(O)cc2)NC(=O)[C@H](C(C)C)NC(=O)[C@@H](NC(=O)[C@@H](NC(=O)[C@H](CC(N)=O)NC(=O)[C@H](Cc2c[nH]c3ccccc23)NC(=O)[C@H](C)NC(=O)[C@H](Cc2ccccc2)NC(=O)CNC(=O)[C@H](CCCCN)NC(=O)[C@H](Cc2ccccc2)NC(=O)[C@H](Cc2ccccc2)NC(=O)[C@H](CCCCN)NC(=O)OCC2c3ccccc3-c3ccccc32)C(C)C)CSSC[C@@H](C(=O)N[C@@H](Cc2c[nH]cn2)C(=O)N[C@@H](CCCNC(=N)N)C(=O)N[C@@H](CCCNC(=N)N)C(=O)N[C@@H](C)C(=O)N[C@@H](CC(N)=O)C(N)=O)NC(=O)[C@H](C(C)C)NC(=O)[C@H](CCCNC(=N)N)NC1=O; test system = ICR mice, blood; conditions = intraperitoneal, 5 mg/kg, day 5; measurement = basophils; value = 1.58 ± 0.25%
Compound = CSCC[C@H](N)C(=O)N[C@@H](C)C(=O)N[C@@H](CCCNC(=N)N)C(=O)N[C@@H](CCCNC(=N)N)C(=O)N[C@@H](CC(=O)O)C(=O)N[C@@H](CCCCN)C(=O)N[C@H](C(=O)N[C@@H](CC(=O)O)C(=O)N[C@@H](Cc1ccccc1)C(=O)N[C@@H](C)C(=O)N[C@@H](CCCNC(=N)N)C(=O)N[C@@H](CCCNC(=N)N)C(=O)N[C@@H](CCCNC(=N)N)C(=O)N[C@@H](CCCNC(=N)N)C(=O)NCCCCCC(=O)NCCCCC(NC(=O)CCCCCNC(=O)[C@H](CCCNC(=N)N)NC(=O)[C@H](CCCNC(=N)N)NC(=O)[C@H](CCCNC(=N)N)NC(=O)[C@H](CCCNC(=N)N)NC(=O)[C@H](C)NC(=O)[C@H](Cc1ccccc1)NC(=O)[C@H](CC(=O)O)NC(=O)[C@@H](NC(=O)[C@H](CCCCN)NC(=O)[C@H](CC(=O)O)NC(=O)[C@H](CCCNC(=N)N)NC(=O)[C@H](CCCNC(=N)N)NC(=O)[C@H](C)NC(=O)[C@@H](N)CCSC)[C@@H](C)O)C(=O)NCCCCC(NC(=O)C(CCCCNC(=O)CCCCCNC(=O)[C@H](CCCNC(=N)N)NC(=O)[C@H](CCCNC(=N)N)NC(=O)[C@H](CCCNC(=N)N)NC(=O)[C@H](CCCNC(=N)N)NC(=O)[C@H](C)NC(=O)[C@H](Cc1ccccc1)NC(=O)[C@H](CC(=O)O)NC(=O)[C@@H](NC(=O)[C@H](CCCCN)NC(=O)[C@H](CC(=O)O)NC(=O)[C@H](CCCNC(=N)N)NC(=O)[C@H](CCCNC(=N)N)NC(=O)[C@H](C)NC(=O)[C@@H](N)CCSC)[C@@H](C)O)NC(=O)CCCCCNC(=O)[C@H](CCCNC(=N)N)NC(=O)[C@H](CCCNC(=N)N)NC(=O)[C@H](CCCNC(=N)N)NC(=O)[C@H](CCCNC(=N)N)NC(=O)[C@H](C)NC(=O)[C@H](Cc1ccccc1)NC(=O)[C@H](CC(=O)O)NC(=O)[C@@H](NC(=O)[C@H](CCCCN)NC(=O)[C@H](CC(=O)O)NC(=O)[C@H](CCCNC(=N)N)NC(=O)[C@H](CCCNC(=N)N)NC(=O)[C@H](C)NC(=O)[C@@H](N)CCSC)[C@@H](C)O)C(N)=O)[C@@H](C)O (stereo partly drawn); test system = C57BL/6 mouse female, colon; conditions = dose not given, 3 h; how to read = baseline: total; measurement = tissue distribution; value = 1.4% and 2.61% and 1.37%
